Published values from different studies.
Each line is one published result; not all experiments were run side by side. Numbers after ± are the reported error.

With `CC(=NN=c1[nH]c2cc(F)c(F)cc2n1C)c1ccc(F)cn1` the apoptotic cells was 4 to 5% (refers to: cleaved caspase-3; MDA-MB-231 xenograft, SCID mice; 10 mg/kg/day).
`N=C(N)NCCC[C@H](NC(=O)[C@@H]1CSSC[C@H](NC(=O)[C@H](Cc2ccc3ccccc3c2)NC(=O)[C@H](CCCNC(=N)N)NC(=O)[C@H](CCCNC(=N)N)NC(=O)c2ccc(F)cc2)C(=O)N[C@@H](Cc2ccc(O)cc2)C(=O)N[C@@H](CCCNC(N)=O)C(=O)N[C@@H](CCCCN)C(=O)N[C@H](CCCCN)C(=O)N2CCC[C@H]2C(=O)N[C@@H](Cc2ccc(O)cc2)C(=O)N[C@@H](CCCNC(=N)N)C(=O)N[C@@H](CCCNC(N)=O)C(=O)N1)C(N)=O`: “white blood cell count” 4 fold (cell mobilization, antagonist, flow cytometry; normal mice, peripheral blood; subcutaneous, 50 µg per mouse, 30 min, 1, 2 h; relative to: untreated mice).
`Cc1ncsc1-c1ccc([C@H](C)NC(=O)[C@@H]2C[C@@H](O)CN2C(=O)[C@@H](NC(=O)CCCCCCC(=O)N2CCN(C[C@]3(C)CCC(c4ccc(Cl)cc4)=C(CN4CCN(c5ccc(C(=O)NS(=O)(=O)c6ccc(N[C@H](CCN7CCOCC7)CSc7ccccc7)c(S(=O)(=O)C(F)(F)F)c6)cc5)CC4)C3)CC2)C(C)(C)C)cc1`: mRNA level “no effect” (refers to: Ccl2 and Ccl5; STAM mice NASH-HCC model, liver; dose not given, day 150, treated days 45-90).
For `C[C@@H]1CN(C2CCC2)CC[C@H](O[C@H]2[C@@H](O)C[C@H](O[C@H]3[C@@H](O)C[C@H](O[C@H]4CC[C@@]5(C)[C@H](CC[C@@H]6[C@@H]5C[C@@H](O)[C@]5(C)[C@@H](C7=CC(=O)OC7)CC[C@]65O)C4)O[C@@H]3C)O[C@@H]2C)O1`, “K+ decay time constant” read 57 ± 8% (rat hippocampal slices; 10 µM, ~14 min, trace 2, added: electrical stimulation; relative to: pre-drug control).
Under “infarct volume reduction”, `CCCCN(CCc1ccc(Cl)c(Cl)c1)C[C@H](O)COc1ccc(NS(C)(=O)=O)cc1` is recorded as 59% (mouse, transient MCAO; intracerebroventricular, dose not given, 20 min before occlusion; relative to: vehicle).
For `Cc1nn(C)c2c(C(C(=O)O)N3CC(OCCCCc4ccc5c(n4)NCCC5)C3)cccc12` (stereo not shown), “pulmonary vascular remodelling” read “decreased” (refers to: small PA medial wall thickness; rat, Sugen/hypoxia model; relative to: vehicle or IgG).
The IC50 of `NC(=O)c1nn(CC(=O)N2[C@@H]3C[C@@H]3C[C@H]2C(=O)Nc2cccc(Br)n2)c2ccccc12` is reported as 50 nM (complement MAC deposition; 50% human serum; added: zymosan).
`CCC1NC(=O)C(CCCNC(=N)N)NC(=O)C(C)(NC(=O)C(C)C)CCCCNC(=O)C(c2ccccc2)NC1=O` (stereo not shown): cell growth “no effect” (CellTiter-Glo; Hoxa9/Meis1 leukaemia cells, mouse; dose not given).
For `CN(C)C(=O)Cn1cc(-c2ccc(-c3cncc4ccncc34)cc2)cn1`, “STAT1 Ser727 phosphorylation” read “decreased” (refers to: phospho-STAT1 Ser727; mouse C57BL/6, splenic NK1.1+ NK cells; oral, 75 mg/kg, single, 6 h).
`O=C(NNC(=S)Nc1cccc(C(F)(F)F)c1)c1cccn1-c1ccc(F)cc1` — result for p-tau level: “decreased” (refers to: tau pS396/pS404; rTg4510 mouse 4-month-old, cultured brain slices; dose not given).

Some of these lines once more:
With `CC(=NN=c1[nH]c2cc(F)c(F)cc2n1C)c1ccc(F)cn1` the apoptotic cells was 4 to 5% (refers to: cleaved caspase-3; MDA-MB-231 xenograft, SCID mice; 10 mg/kg/day).
